Experimental data of several laboratories.
Each numbered part is a random draw from the data of one study; scales do not carry over between parts. Values joined by “and” are separate records of one study, mostly repeats; a detail may differ. Values after ≈ are worked out from the molar mass of the structure shown.
Sequence of UniProt P49759 (whole entry, looked up): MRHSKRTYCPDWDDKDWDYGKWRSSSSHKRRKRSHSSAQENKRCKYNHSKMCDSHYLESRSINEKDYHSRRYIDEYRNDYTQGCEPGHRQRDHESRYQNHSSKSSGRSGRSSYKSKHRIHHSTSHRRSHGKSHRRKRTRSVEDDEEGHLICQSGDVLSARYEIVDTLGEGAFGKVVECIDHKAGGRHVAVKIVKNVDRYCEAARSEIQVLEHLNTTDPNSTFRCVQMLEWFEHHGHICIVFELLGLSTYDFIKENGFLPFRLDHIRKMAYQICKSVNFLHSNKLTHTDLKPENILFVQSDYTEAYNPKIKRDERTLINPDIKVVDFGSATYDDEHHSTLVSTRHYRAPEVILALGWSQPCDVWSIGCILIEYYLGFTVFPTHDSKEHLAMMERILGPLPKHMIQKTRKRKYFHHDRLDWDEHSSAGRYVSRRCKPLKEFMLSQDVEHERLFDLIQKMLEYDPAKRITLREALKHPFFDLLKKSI
Sequence of UniProt P51812 (whole entry, looked up): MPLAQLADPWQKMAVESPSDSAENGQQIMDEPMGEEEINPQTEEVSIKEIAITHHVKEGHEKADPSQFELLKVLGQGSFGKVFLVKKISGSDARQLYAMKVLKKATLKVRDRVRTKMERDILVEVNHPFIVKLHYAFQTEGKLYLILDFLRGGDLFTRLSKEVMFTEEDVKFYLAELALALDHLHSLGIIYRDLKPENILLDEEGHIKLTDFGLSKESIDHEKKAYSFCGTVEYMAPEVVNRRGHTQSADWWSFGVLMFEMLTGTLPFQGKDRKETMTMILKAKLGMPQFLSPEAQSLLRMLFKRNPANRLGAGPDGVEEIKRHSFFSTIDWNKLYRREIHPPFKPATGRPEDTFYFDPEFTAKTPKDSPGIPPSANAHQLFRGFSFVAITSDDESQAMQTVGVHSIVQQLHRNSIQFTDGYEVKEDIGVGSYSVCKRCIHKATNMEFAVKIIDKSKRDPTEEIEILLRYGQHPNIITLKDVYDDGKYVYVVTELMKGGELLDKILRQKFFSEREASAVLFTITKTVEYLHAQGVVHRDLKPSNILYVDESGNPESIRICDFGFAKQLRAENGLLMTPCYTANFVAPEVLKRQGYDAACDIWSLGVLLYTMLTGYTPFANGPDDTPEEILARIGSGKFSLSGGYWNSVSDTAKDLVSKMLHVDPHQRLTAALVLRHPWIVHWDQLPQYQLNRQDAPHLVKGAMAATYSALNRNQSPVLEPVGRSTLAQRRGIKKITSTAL
Sequence of UniProt P54753 (whole entry, looked up): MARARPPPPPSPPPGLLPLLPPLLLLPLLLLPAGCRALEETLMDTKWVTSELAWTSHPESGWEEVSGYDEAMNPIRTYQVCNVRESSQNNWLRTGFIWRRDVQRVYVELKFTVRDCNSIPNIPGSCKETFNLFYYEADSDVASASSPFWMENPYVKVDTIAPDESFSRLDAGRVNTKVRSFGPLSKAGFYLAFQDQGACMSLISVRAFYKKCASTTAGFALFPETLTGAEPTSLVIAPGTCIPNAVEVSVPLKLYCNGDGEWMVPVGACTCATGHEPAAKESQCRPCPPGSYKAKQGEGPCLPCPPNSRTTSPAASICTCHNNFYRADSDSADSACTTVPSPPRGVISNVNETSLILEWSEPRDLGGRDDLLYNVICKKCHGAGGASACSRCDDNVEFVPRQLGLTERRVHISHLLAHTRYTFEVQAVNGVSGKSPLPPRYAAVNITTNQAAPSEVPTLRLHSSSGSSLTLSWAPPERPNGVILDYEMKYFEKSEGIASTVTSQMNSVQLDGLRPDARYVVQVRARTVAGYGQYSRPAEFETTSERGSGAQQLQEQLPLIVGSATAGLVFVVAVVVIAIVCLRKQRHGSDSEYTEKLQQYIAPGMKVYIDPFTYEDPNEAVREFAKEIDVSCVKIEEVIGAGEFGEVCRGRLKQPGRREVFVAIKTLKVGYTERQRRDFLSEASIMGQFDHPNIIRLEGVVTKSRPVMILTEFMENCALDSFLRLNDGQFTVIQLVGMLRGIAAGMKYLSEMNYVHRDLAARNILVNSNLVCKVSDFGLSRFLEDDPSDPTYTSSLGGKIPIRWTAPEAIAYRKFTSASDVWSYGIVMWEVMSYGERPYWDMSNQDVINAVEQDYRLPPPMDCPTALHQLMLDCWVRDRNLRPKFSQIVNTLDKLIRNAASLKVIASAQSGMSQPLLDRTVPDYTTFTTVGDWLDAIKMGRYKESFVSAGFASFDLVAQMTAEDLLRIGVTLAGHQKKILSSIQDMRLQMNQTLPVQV
Sequence of UniProt P53778 (whole entry, looked up): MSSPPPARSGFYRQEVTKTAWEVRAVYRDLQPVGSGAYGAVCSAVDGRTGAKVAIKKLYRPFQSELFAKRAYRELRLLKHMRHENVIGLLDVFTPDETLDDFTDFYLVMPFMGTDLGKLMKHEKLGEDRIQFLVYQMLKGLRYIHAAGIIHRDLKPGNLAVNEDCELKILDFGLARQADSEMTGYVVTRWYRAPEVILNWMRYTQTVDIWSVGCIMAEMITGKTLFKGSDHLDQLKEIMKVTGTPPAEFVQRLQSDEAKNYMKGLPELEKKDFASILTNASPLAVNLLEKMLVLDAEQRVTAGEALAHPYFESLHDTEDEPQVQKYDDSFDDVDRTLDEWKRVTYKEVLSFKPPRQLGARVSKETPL
Sequence of UniProt P28482 (whole entry, looked up): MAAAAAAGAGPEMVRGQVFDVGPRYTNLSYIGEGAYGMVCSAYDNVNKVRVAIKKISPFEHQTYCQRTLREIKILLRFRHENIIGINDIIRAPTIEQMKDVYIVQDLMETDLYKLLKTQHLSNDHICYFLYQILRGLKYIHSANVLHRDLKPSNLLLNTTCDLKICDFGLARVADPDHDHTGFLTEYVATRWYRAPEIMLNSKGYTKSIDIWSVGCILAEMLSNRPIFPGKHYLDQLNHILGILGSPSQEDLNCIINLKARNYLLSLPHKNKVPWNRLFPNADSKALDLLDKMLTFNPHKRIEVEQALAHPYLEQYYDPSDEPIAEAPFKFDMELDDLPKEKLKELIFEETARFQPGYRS
Sequence of UniProt Q9UK32 (whole entry, looked up): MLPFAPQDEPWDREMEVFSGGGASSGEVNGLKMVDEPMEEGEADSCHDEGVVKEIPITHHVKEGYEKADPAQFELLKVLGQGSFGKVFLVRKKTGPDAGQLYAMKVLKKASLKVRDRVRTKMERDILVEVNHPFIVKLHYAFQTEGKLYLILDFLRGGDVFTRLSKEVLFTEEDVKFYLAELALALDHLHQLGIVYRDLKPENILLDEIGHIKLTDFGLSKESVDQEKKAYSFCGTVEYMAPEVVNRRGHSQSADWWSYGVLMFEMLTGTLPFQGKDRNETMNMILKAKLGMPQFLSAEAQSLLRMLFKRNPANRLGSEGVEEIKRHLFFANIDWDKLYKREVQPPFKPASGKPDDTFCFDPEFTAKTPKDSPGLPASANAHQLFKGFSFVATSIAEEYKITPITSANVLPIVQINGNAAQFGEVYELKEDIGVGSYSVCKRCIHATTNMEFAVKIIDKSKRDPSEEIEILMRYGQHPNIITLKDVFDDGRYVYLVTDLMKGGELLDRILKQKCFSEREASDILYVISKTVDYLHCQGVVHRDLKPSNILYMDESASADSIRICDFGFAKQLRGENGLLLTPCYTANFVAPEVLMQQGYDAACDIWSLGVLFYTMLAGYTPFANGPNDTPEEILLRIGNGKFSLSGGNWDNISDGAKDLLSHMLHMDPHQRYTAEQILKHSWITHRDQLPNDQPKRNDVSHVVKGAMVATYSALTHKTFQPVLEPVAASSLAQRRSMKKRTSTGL
Sequence of UniProt Q86UX6 (whole entry, looked up): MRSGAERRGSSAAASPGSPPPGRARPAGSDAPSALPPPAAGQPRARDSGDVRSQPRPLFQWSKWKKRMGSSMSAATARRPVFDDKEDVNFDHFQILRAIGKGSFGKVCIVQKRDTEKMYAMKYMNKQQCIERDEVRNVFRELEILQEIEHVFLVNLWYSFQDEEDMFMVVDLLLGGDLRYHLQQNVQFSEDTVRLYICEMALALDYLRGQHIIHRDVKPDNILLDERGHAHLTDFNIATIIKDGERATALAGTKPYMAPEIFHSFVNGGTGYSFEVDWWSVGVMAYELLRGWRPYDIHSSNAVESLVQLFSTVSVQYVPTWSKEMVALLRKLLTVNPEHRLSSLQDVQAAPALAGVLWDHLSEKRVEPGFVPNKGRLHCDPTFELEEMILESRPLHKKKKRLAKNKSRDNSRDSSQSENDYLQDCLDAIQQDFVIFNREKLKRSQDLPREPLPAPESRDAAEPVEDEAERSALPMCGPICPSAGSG
Sequence of UniProt P53671 (whole entry, looked up): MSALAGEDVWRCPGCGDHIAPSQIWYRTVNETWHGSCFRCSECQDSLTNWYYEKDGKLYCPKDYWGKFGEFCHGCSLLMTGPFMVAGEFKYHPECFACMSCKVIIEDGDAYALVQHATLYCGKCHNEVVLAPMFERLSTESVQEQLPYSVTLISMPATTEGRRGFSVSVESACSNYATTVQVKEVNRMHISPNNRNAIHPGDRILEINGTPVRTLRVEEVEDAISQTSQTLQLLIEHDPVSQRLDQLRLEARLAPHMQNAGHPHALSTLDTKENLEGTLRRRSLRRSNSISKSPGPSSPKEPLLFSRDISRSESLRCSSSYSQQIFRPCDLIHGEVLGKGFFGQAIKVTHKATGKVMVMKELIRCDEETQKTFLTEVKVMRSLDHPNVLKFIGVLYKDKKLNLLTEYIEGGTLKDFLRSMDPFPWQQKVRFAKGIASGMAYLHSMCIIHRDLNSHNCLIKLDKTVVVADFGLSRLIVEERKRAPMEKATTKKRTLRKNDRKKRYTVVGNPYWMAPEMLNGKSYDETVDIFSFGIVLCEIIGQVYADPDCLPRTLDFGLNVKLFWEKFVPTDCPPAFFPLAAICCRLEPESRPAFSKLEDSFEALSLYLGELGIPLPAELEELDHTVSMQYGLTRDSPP

Series 1
Medium: CES1-/- mouse GI tissue homogenate
Tested at: concentration not given
Time: 60 min
Quantity: DON release
CC(=O)N[C@@H](Cc1c[nH]c2ccccc12)C(=O)N[C@@H](CCC(=O)C=[N+]=[N-])C(N)=O: 16%
COCCOCCOC(=O)[C@H](CCC(=O)C=[N+]=[N-])NC(=O)[C@H](Cc1c[nH]c2ccccc12)NC(=O)CN(C)C: 15.3%
CC(=O)N[C@@H](Cc1c[nH]c2ccccc12)C(=O)N[C@@H](CCC(=O)C=[N+]=[N-])C(=O)OC(CF)CF: 20%
[2H]C([2H])([2H])OC(=O)[C@H](CCC(=O)C=[N+]=[N-])NC(=O)[C@H](Cc1c[nH]c2ccccc12)NC(C)=O: 19.1%

Series 2
SMILES: COc1cc(-c2nc3ccc(C(=O)NCCCN(C)C)cc3n2C2CCC2)cc(OC)c1OC
Quantity: remaining binding
FLT3 ITD D835V human; KINOMEscan; 1000 nM; reference: DMSO control: 81%
Ribosomal protein S6 kinase alpha-6, C-terminal kinase domain (RPS6KA6, Homo sapiens, UniProt Q9UK32); binding, competition with immobilised ligand; 1 µM: 85%
EPHB4 (Homo sapiens, UniProt P54760); binding, competition with immobilised ligand; 1 µM: 100%
MAPK1 (Homo sapiens, UniProt P28482); binding, competition with immobilised ligand; 1 µM: 100%
EPHB3 (Homo sapiens, UniProt P54753); binding, competition with immobilised ligand; 1 µM: 100%
MAPK12 (Homo sapiens, UniProt P53778); binding, competition with immobilised ligand; 1 µM: 100%
WNK3 (Homo sapiens, UniProt Q9BYP7); binding, competition with immobilised ligand; 1 µM: 100%
PRKD3 (Homo sapiens, UniProt O94806); binding, competition with immobilised ligand; 1 µM: 82%

Series 3
Structure (SMILES): O=C(Nc1ccccc1)Nc1cccc(Oc2ccc3nccn3n2)c1
Tested at: 1 µM
Quantity: remaining binding
LIM domain kinase 2 (LIMK2, Homo sapiens, UniProt P53671); binding, competition with immobilised ligand: 100%
HIPK2 (Homo sapiens, UniProt Q9H2X6); cell-free binding: 73%
RIOK1 (Homo sapiens, UniProt Q9BRS2); binding: 52%
CLK1 (Homo sapiens, UniProt P49759); binding, competition with immobilised ligand: 94%
Ribosomal protein S6 kinase alpha-3, N-terminal kinase domain (RPS6KA3, Homo sapiens, UniProt P51812); binding, competition with immobilised ligand: 100%
STK32C (Homo sapiens, UniProt Q86UX6); binding: 100%
TLK2 (Homo sapiens, UniProt Q86UE8); binding: 100%
PKN1 (Homo sapiens, UniProt Q16512); binding: 100%

Mixed results
C=CCN1C(=O)C(O)(C(=O)O)Oc2cc(F)ccc21 (stereo not shown)  inhibition (Zea mays; fresh weight; soil surface spray, 150 g ai/ha, 21 days, pre-emergence crop safety): 21.2% and 25.4% and 19.4%
Cn1cc(-c2cccc(CN3CCC4(CC3)COc3c4ccc4c3CN([C@@H]3CCC(=O)NC3=O)C4=O)c2)cn1  solubility (FaSSIF): 175 µM (≈ 92.1 µg/mL)

For quick reference, copied from above (series 1):
CC(=O)N[C@@H](Cc1c[nH]c2ccccc12)C(=O)N[C@@H](CCC(=O)C=[N+]=[N-])C(N)=O: 16%
COCCOCCOC(=O)[C@H](CCC(=O)C=[N+]=[N-])NC(=O)[C@H](Cc1c[nH]c2ccccc12)NC(=O)CN(C)C: 15.3%
